Published values of several laboratories.
Lines come from different studies, so protocols differ. ± gives the spread as reported.
Organism: Trypanosoma brucei rhodesiense

Structure (SMILES)	test	system	setting	IC50 [nM]
COc1ccc(/C=N/N=C/c2ccc([N+](=O)[O-])s2)cc1	parasite growth, CellTiter-Glo	IL1501 bloodstream form	72 h	1300 ± 210
Cc1ccc(N2Cc3cc(NC(=O)N4CCN(c5cccc(C(F)(F)F)c5)CC4)ccc3C2=O)cc1	cell growth, resazurin	STIB-900	3 days	40
CCOC(=O)C(CC)NC(=O)CN1C(=O)S/C(=C\c2ccc(OC)cc2)C1=O (stereo not shown)	cell viability	IL1501	72 h	> 58000
Cc1ccc(/C=N/N=C/c2ccc([N+](=O)[O-])o2)cc1	parasite growth, CellTiter-Glo	IL1501 bloodstream form	72 h	3710 ± 1300
O=C(Nc1ccc2c(c1)CN(c1ccc(Cl)cc1)C2=O)N1CC[C@H](O)C1	parasite growth, resazurin	STIB-900	3 d	> 64000
CCC(NC(=O)CN1C(=O)N/C(=C\c2ccc(C)cc2)C1=O)C(=O)OC (stereo not shown)	cell viability	IL1501	72 h	> 64000
O=C(Nc1ccc2c(c1)CN(c1ccc(Br)cc1)C2=O)N1CCN(c2ccc(F)cc2)CC1	cell growth, resazurin	STIB-900	3 days	50
O=[N+]([O-])c1ccc(/C=N/N=C/c2ccc([N+](=O)[O-])s2)cc1	parasite growth, CellTiter-Glo	IL1501 bloodstream form	72 h	930 ± 230
O=C(Nc1cc2nc(-c3ccc(F)c(F)c3)cn2cn1)N1CC[C@H](F)C1	parasite growth	STIB900	3 days	110
CCOC(=O)C(C)NC(=O)CN1C(=O)S/C(=C\c2ccc(F)cc2)C1=O (stereo not shown)	cell viability	IL1501	72 h	> 64000
O=C(Nc1ccc2c(c1)CN(c1ccccc1)C2=O)N1CC[C@H](F)C1	parasite growth, resazurin	STIB-900	3 d	> 64000
O=[N+]([O-])c1ccc(/C=N/N=C/c2ccccc2)s1	parasite growth, CellTiter-Glo	IL1501 bloodstream form	72 h	350 ± 20
CCOC(=O)C(NC(=O)CN1C(=O)N/C(=C\c2ccc3c(c2)OCO3)C1=O)C(C)C (stereo not shown)	cell viability	IL1501	72 h	> 66000

Repeated from above:
Structure (SMILES)	test	system	setting	IC50 [nM]
O=C(Nc1ccc2c(c1)CN(c1ccccc1)C2=O)N1CC[C@H](F)C1	parasite growth, resazurin	STIB-900	3 d	> 64000
